Published values gathered from unrelated publications.
Compare with care: the assays were run in different laboratories.

Under “adverse event incidence”, `CC(C)n1c(Nc2cccnc2)nc2cnc(Nc3ccc(N4CCN(C)CC4)cc3)nc21` is recorded as 0% (measured: Dizziness; healthy male subjects; oral, 150 mg, together with: rifampin).
`CC(=O)O[C@H]1C(=O)[C@@]2(C)[C@H]([C@H](OC(=O)c3ccccc3)[C@]3(O)C[C@H](OC(=O)[C@H](O)[C@@H](NC(=O)c4ccccc4)c4ccccc4)C(C)=C1C3(C)C)[C@]1(OC(C)=O)CO[C@@H]1C[C@@H]2O` — result for “adverse event incidence”: 11% (measured: Pruritus; patients with advanced solid tumours; intravenous, dose not given, all grades, possibly related to drug).
`CNC(=O)c1ccc(-c2cnc3ncc(Cc4ccc5ncccc5c4)n3n2)cc1F`: “adverse event incidence” 0% (phase 1 clinical trial, measured: peripheral edema; HCC expansion cohort; oral, 600 mg twice daily, grade 3 or 4).
`CC[C@H](C)CCCCC(=O)N[C@@H](CCN)C(=O)N[C@H](C(=O)N[C@@H](CCN)C(=O)N[C@H]1CCNC(=O)[C@H]([C@@H](C)O)NC(=O)[C@H](CCN)NC(=O)[C@H](CCN)NC(=O)[C@H](CC(C)C)NC(=O)[C@@H](Cc2ccccc2)NC(=O)[C@H](CCN)NC1=O)[C@@H](C)O`: “adverse event incidence” 100% (measured: nervous system disorders; long-term haemodialysis patients; IV, 0.75 mg/kg).
Under “adverse event incidence”, `NCCONC(=O)[C@@H]1CC[C@@H]2CN1C(=O)N2OS(=O)(=O)O` is recorded as 12.5% (measured: Mild severity; healthy Chinese men; intravenous, 2 g, treatment-related).
For `O=C1CCc2ccc(OCCCCN3CCN(c4cccc(Cl)c4Cl)CC3)cc2N1`, “adverse event incidence” read 12% (measured: Xerostomia; patients, CYP2D6 intermediate metabolizers; dose not given, long-acting oral or depot).
Under “adverse event incidence”, `CC[C@H](C)[C@H](NC(=O)[C@H](Cc1ccccc1)NC(=O)[C@H](CCC(=O)O)NC(=O)[C@H](CCCCNC(=O)COCCOCCNC(=O)COCCOCCNC(=O)CC[C@H](NC(=O)CCCCCCCCCCCCCCCCC(=O)O)C(=O)O)NC(=O)[C@H](C)NC(=O)[C@H](C)NC(=O)[C@H](CCC(N)=O)NC(=O)CNC(=O)[C@H](CCC(=O)O)NC(=O)[C@H](CC(C)C)NC(=O)[C@H](Cc1ccc(O)cc1)NC(=O)[C@H](CO)NC(=O)[C@H](CO)NC(=O)[C@@H](NC(=O)[C@H](CC(=O)O)NC(=O)[C@H](CO)NC(=O)[C@@H](NC(=O)[C@H](Cc1ccccc1)NC(=O)[C@@H](NC(=O)CNC(=O)[C@H](CCC(=O)O)NC(=O)C(C)(C)NC(=O)[C@@H](N)Cc1cnc[nH]1)[C@@H](C)O)[C@@H](C)O)C(C)C)C(=O)N[C@@H](C)C(=O)N[C@@H](Cc1c[nH]c2ccccc12)C(=O)N[C@@H](CC(C)C)C(=O)N[C@H](C(=O)N[C@@H](CCCNC(=N)N)C(=O)NCC(=O)N[C@@H](CCCNC(=N)N)C(=O)NCC(=O)O)C(C)C` is recorded as 20% (measured: Vomiting; type 2 diabetes patients; dose not given; relative to: subjects).
`Cc1c(C(=O)O)ccc2c3n(nc12)[C@@H]1[C@H](C3)N(CC2CC2)[C@@]2(C(=O)Nc3cc(Cl)ccc32)[C@H]1c1cccc(Cl)c1F`: “adverse event incidence” 0% (phase Ia trial, measured: Pyrexia; cancer patients; oral, dose not given, all patients grade ≥3).
For `Cc1c(Cl)c(C)[n+]([O-])c(Cl)c1-c1noc(-c2cc(O)c(O)c([N+](=O)[O-])c2)n1`, “adverse event incidence” read 0% (measured: Severe severity; healthy Chinese subjects; oral, 100 mg).
`FC(F)(F)c1ccc(CNc2ccc(Cc3c[nH]c4ncc(Cl)cc34)cn2)cn1`: “adverse event incidence” 13% (measured: periorbital oedema; patients with advanced solid tumours; oral, dose not given, grade 1 and 2, possibly related to drug).

Excerpt of the above:
For `Cc1c(Cl)c(C)[n+]([O-])c(Cl)c1-c1noc(-c2cc(O)c(O)c([N+](=O)[O-])c2)n1`, “adverse event incidence” read 0% (measured: Severe severity; healthy Chinese subjects; oral, 100 mg).
